{"data": "Measurements pooled from the literature", "note": "Protocols differ between the studies behind these lines. ± marks the error that the study gave."}
{"Structure (SMILES)": "CC[P+](CC)(CC)[Au-][S][C@@H]1O[C@H](COC(C)=O)[C@@H](OC(C)=O)[C@H](OC(C)=O)[C@H]1NC(=O)C(Cl)(Cl)Cl", "medium": "n-octanol/water", "logP": 1.01}
{"Structure (SMILES)": "Cc1c(C)c(C)[c-](C)c1C.[C-]#[O+].[C-]#[O+].[C-]#[O+].[Cl-].[Cl-].[Cl-].[Ir+3].[Re+].c1cnc(-c2ncccn2)nc1", "technique": "shake flask", "logP": 0.47}
{"Structure (SMILES)": "CN[P+](c1ccccc1)(c1ccccc1)c1ccccc1", "technique": "HPLC", "medium": "octanol/water", "concentration": "100 µM", "logP": "-1.28 ± 0.01"}
{"Structure (SMILES)": "CC1=C2[O][Ru-]([Cl])[O+]=C2C=CN1CCCCCCCCCCCCN1C=CC2=[O+][Ru-]([Cl])[O]C2=C1C.Cc1ccc(C(C)C)cc1.Cc1ccc(C(C)C)cc1", "technique": "shake flask, UV-vis", "medium": "n-octanol/water", "setting": "aqua complex", "logP": -0.58}
{"Structure (SMILES)": "COc1cc(OC)cc(C2=C3C(C)=C(I)C(/C=C/c4c[nH]c5ccc([N+](=O)[O-])cc45)=[N+]3[B-](F)(F)n3c(/C=C/c4c[nH]c5ccc([N+](=O)[O-])cc45)c(I)c(C)c32)c1", "medium": "octanol/HEPES buffer", "pH": "pH 7.4", "temperature": "room temperature", "logP": 1.94}
{"Structure (SMILES)": "O=C(N[c-]1cccc1)OCc1ccc(F)cc1.[Fe+2].c1cc[cH-]c1", "technique": "RP-TLC", "medium": "MOPS/acetonitrile", "pH": "pH 7.4", "logP": "4.17 ± 0.27"}
{"Structure (SMILES)": "COCCOCCOCCOCCOCCOCCOCCNC(=O)CCC1(CCC(=O)NCCOCCOCCOCCOCCOCCOCCOC)c2ccccc2-c2ccc(-c3sc(-c4c5c(c(-c6sc(-c7ccc8c(c7)C(CCC(=O)NCCOCCOCCOCCOCCOCCOCCOC)(CCC(=O)NCCOCCOCCOCCOCCOCCOCCOC)c7ccccc7-8)c7c6OCCO7)c6nsnc46)N=S=N5)c4c3OCCO4)cc21", "technique": "shake flask", "medium": "n-octanol/water", "logP": -0.41}
{"Structure (SMILES)": "CN1C(=O)[C@@H](Cc2ccc(O)cc2)NC(=O)CNC(=O)[C@H](Cc2ccc3ccccc3c2)NC(=O)[C@H](CCCNC(=N)N)NC(=O)[C@H]1CCCNC(=O)c1ccc(CNC(=O)CN2CCN(CC(=O)O)CCN(CC(=O)O)CCN(CC(=O)O)CC2)cc1 [gallium-68 labelled]", "medium": "octanol/water", "logP": -2.9}
{"Structure (SMILES)": "Cc1c(C)c(C)[c-](C)c1C.O=C([N-]c1ccccc1)c1ccccn1.[Cl-].[Ir+3]", "technique": "shake-flask", "medium": "octanol/PBS", "logP": "1.15 ± 0.23"}
{"Structure (SMILES)": "CCCCC[P+](c1ccccc1)(c1ccccc1)c1ccccc1", "technique": "shake flask, HPLC", "medium": "1-octanol/water", "logP": "-0.84 ± 0.01"}
{"Structure (SMILES)": "FC(F)(F)c1ccc2nc3c4cccnc4c4ncccc4c3nc2c1.[Cl-].[Cl-].[Ru+2].c1ccncc1.c1ccncc1.c1ccncc1.c1ccncc1", "medium": "n-octanol/water", "logP": "-1.14 ± 0.03"}
{"Structure (SMILES)": "CCCCCCCC[P+](c1ccccc1)(c1ccccc1)c1ccccc1", "technique": "shake flask, HPLC", "medium": "1-octanol/water", "logP": "0.22 ± 0.02"}
{"Structure (SMILES)": "N=C(N)NCCC[C@@H]1NC(=O)[C@H](CCCCNC(=O)CC[C@H](NC(=O)CN2CCN(CC(=O)O)CCN(CC(=O)O)CCN(CC(=O)O)CC2)C(=O)NCCCC[C@@H]2NC(=O)[C@@H](Cc3ccccc3)NC(=O)[C@H](CC(=O)O)NC(=O)CNC(=O)[C@H](CCCNC(=N)N)NC2=O)NC(=O)[C@@H](Cc2ccccc2)NC(=O)[C@H](CC(=O)O)NC(=O)CNC1=O [gallium-68 labelled]", "medium": "octanol/PBS", "pH": "pH 7.4", "temperature": "room temperature", "logP": "-4.04 ± 0.15"}
{"Structure (SMILES)": "COc1cccc(O)c1C=NCCCN(C)CCN(C)CCCN=Cc1c(O)cccc1OC", "medium": "1-octanol/saline", "pH": "pH 7.4", "setting": "67Ga complex", "logP": "2.56 ± 0.02"}
{"Structure (SMILES)": "CC[P+](CC)(CC)[Au-][S]c1ccc(OC)cc1", "medium": "n-octanol/water", "logP": 2.01}
{"note": "A few entries again:"}
{"Structure (SMILES)": "CN[P+](c1ccccc1)(c1ccccc1)c1ccccc1", "technique": "HPLC", "medium": "octanol/water", "concentration": "100 µM", "logP": "-1.28 ± 0.01"}
{"Structure (SMILES)": "CC1=C2[O][Ru-]([Cl])[O+]=C2C=CN1CCCCCCCCCCCCN1C=CC2=[O+][Ru-]([Cl])[O]C2=C1C.Cc1ccc(C(C)C)cc1.Cc1ccc(C(C)C)cc1", "technique": "shake flask, UV-vis", "medium": "n-octanol/water", "setting": "aqua complex", "logP": -0.58}
